Assay results gathered from unrelated publications.
A part holds a random share of what one study measured.

Block 1
Target: RNA binding protein fox-1 homolog 2, RRM domain, GST-SBP tag (RBFOX2, Homo sapiens, UniProt O43251-10, residues 100-194)
Method: RNA Bind-n-Seq
Molecule type: RNA
Medium: in vitro
Concentration: 365 nM
Setting: natural RNA segment, single round, ends assumed
Baseline: no-protein control
Direction: higher = stronger binding
All sequences stand within: GGGAGUUCUACAGUCCGACGAUC … UGGAAUUCUCGGGUGCCAA
Construct (chain): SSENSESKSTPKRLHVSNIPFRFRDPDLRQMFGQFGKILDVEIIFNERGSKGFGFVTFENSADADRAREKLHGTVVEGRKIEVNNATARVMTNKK
Oligonucleotide	RBNS enrichment (R)
CAUAUACUGUACAUCAAGUAUAGGAAAUGUGCACUGAGUAUACUAAAAGUAUAUGCAGGAUUAAUUUUACAUAAAGGCCUCUUCUGUAACAUUUCUCUAUUUUUUGAAAU	0.485
GGGAAAACGGCGUCGCCCUCAUUUCAACCCCACUCCUACCCCCUUCCUCAACCCCCAAACAAAACAAACAAACUUCCCUGGCUUCGCACCUGCCUGGGGCCUCGCAGCGG	1.08
UACAUGGUGAUCUUAAAAACACCCACCUGCACCAUCACACCAGACUGUACCACUAGGGCAUCCAGAACAAGCCCCACCCUAACAGUGGGGGCAGGGAGGGUACAGCCAGG	0.412
GCUCUGGGCAGGGCCUGGGGAUCCCACAUUCCAUGCCCAGGCUUGGGGGAGGGGGACCCAGACUUGUUGUACAUAUUUUGCAUACUGUCUGAUUAAACACAAACAGACCU	0.259
UGCGUCCUCUGGGACCUUCUUAGAUGCUGUAAGGUACCUACAUACAGACUAAAUGUGCAAGCACCUUGAAGUGUGAGAACCUGUCCCCUCCUUAGCUCUCCUUGUCUUUG	0.427
GCCCUGGCUUCUCUGAGGAAGCUGGGGUUCAUGACAAUGGCAGAUGUAAAGUUAUUCUUGAAGUCAGAUUGAGGCUGGGAGACAGCCGUAGUAGAUGUUCUACUUUGUUC	0.34
UCAGGCUCUGGGCAGCAGGUGUCAGGCUGCUCCUAUCAGUGAGUGGGGCCACUGCUGAUAUUUGGCCUCUGCACAAGUGUGAGUGAAGAGAAAGAUUGGAAGCAGCUGCU	0.869
GAGCCUUACUUAGAAGAUGCUGCUGGAGUCACAGCUGAGGAGAGGAAUACUAUCAACAUGGACUAUCCUGGGAAAGAGCUAGGAAGUAGAUGCUGAGGUCCCCAUCCAAA	0.525

Block 2
Target: Hepatocyte nuclear factor 3-alpha (Foxa1, Mus musculus, UniProt P35582, residues 1-468, full length assumed)
Method: EMSA with sequencing
Molecule type: double-stranded DNA, one strand shown
Medium: in vitro
Concentration: 10 and 20 nM
Setting: whole designed probe, mean of two concentrations, ends assumed
Baseline: negative control set to 0
Direction: higher = stronger binding
All sequences stand within: GTGAGCGGTGCCCATTGATGGGGAAC … TTTCACTGGGATCGTGGGGAC
Construct (chain): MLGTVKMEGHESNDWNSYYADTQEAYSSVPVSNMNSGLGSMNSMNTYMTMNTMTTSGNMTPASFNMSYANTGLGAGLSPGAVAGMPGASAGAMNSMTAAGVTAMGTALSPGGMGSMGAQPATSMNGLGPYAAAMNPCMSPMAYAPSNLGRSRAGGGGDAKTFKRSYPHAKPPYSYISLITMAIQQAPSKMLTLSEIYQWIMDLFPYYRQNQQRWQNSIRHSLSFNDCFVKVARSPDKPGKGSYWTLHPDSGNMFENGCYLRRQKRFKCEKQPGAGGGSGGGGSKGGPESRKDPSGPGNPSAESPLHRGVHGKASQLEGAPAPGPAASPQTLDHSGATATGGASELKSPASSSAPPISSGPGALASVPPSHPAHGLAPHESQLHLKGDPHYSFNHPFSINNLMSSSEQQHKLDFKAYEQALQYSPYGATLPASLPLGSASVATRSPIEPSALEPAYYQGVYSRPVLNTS
Oligonucleotide	normalised bound fraction [ratio]
GTAAAATTAATCCAAAGACACGGAAAGTCCATGAATTTCAGTTCTAACAGAAAATTTTTGAATTAAATTTTCAAAAGGTTGTAACTGACAGAGTAATCTTGTACTAGGTACAAGAGGTAATGAATTCTGAAGTTATGAAGTATTTGTATTCCAAGTGGAAATGCAATTGTTTACCTGAATTTTGGGCCCAGAA	0.0867
ACATGCTTTCTTTCCTTTTTTTTTTTCTTTTTGACCTGTGTGTTTTTTACTCTATGTAATTTTGGACAGCTGAATCATTACCTTTCTTATTCAAGATTACAGAGAGTTTATTTATTTGGAACAAAGAGAAAGTTTAAAAATTTGGAAGTTCTCCAAACATTTTCAGTTAAGCAGCATACCATATACAGTGATT	0.122
ATCTTCCCCCTCTTCCTTGCCCCACCAGCTCACCTACGGGGGTTATTTGCAGATAGGAAAATAAATAAAGCCGGCATTCGTTAACGCAGTTCTGGCGCAAACTGCTGTTTGCTCTGGATGAATCATGGTCCTTTGGCGACGCCAGGCTCCGGGAGAGCAAAGCACCGTGTCAGGGCCATGATCCGGGGTGGCC	0.35
ATCTTCCCCCTCTTCCTTGCCCCACCAGCTCACCTTCCCGGGTTATTTGCAGATAGGAAAATAAATAAAGCCGGCATTCGTTAACCCTCTTCTGGCGCAAACTGCTGTTTGCTCTGGATGAATCATGGTCCTTTGGCGCCGCAAGCGTCCGGGAGAGCAAAGCACCGTGTCAGGGCCATGATCCGGGGTGGCC	0.329
GTGTGCTAGCCTGTGAGTTTTTCTCTCCAACTAGCCTGGGTACTCAGGAAAGTGAGATCAACTTCTGGGTGGCCTGACTTGGGTGTAGCCTGTGCAAATAGGGGAGACAGTTGACATACAGATGAAAGGGGAGATGGGAAGCCATACAGAGGAAGGAGAAGATCAGGAACCAGAGATAAGATAATTCTGTAAA	0.241

Block 3
Target: Histone acetyltransferase KAT6A, both winged helices, GST fusion (KAT6A, Homo sapiens, UniProt Q92794, residues 1-181)
Method: protein binding microarray
Molecule type: double-stranded DNA, one strand shown
Medium: in vitro
Concentration: not given
Setting: 8-mer, flanks averaged, mean of 2 arrays, mostly near background
Baseline: not given
Direction: higher = stronger binding
Construct (chain): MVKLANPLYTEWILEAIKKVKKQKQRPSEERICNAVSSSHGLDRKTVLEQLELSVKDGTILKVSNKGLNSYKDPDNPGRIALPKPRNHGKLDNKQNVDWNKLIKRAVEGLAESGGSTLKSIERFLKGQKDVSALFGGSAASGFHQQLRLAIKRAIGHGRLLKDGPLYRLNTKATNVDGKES
Oligonucleotide	E-score
AATGATGG	0.0507
ACGCTGAG	0.101
ATGTCAGC	-0.0292
GCTCCATA	-0.107
AATAAATG	-0.143
CCGTCGTA	0.163
ATGTTTCG	0.0856
ATCGCCTA	0.0153
AATAAGCA	-0.148
AATAGTAT	-0.138
ATGACAAG	-0.091
ATATCCCG	0.203

Other studies, line by line
Molecule	target	test	test system	setting	scale	endpoint	result
PhoQ, residues 284 288 289 292 302 303 SSTMSV	PhoP, residues 12 14 15 18 19 MHTVL (Escherichia coli, UniProt P23836)	Sort-seq, item: YFP reporter	E. coli	PhoQ-PhoP variant library, added: 10 µM Mg2+	baseline: high Mg2+ state, higher = stronger signaling	fold induction	21.4
